Measurements from different studies.
Each numbered part is a random draw from the data of one study; scales do not carry over between parts. Changes are numbered by the printed parent chain.

Sample 1
Target: CCNA2, cyclin fold, Cln2 fusion (human)
Technique: yeast growth competition, sequencing
Medium: yeast
Setting: strong parent motif
Reference: not given
Reading: higher = stronger binding
Parent: viral docking peptide; TSVRRALFTGGSD; partner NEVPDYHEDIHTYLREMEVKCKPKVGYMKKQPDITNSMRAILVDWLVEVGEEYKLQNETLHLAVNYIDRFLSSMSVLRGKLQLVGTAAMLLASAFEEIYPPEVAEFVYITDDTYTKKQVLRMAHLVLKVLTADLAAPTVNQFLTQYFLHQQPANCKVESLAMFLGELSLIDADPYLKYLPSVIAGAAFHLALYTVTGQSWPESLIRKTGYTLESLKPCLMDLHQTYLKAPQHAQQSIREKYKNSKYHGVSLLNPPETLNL
Substitution | normalised enrichment score
TSVRYALFTGGSD [R5Y] | 0.406
TSVRRACFTGGSD [L7C] | 0.75
TSVRRALFYGGSD [T9Y] | 6.35
TSVRRALMTGGSD [F8M] | 0.57
TSVRRALFTGGND [S12N] | 6.2
TSVRRWLFTGGSD [A6W] | 0.899
TSVRRALFTGGKD [S12K] | 5.78
TSVRRALHTGGSD [F8H] | 0.63
TSVRRARFTGGSD [L7R] | 0.458
TSMRRALFTGGSD [V3M] | 1.87
TSVRRALNTGGSD [F8N] | 0.639
TSVRRAYFTGGSD [L7Y] | 0.63
TYVRRALFTGGSD [S2Y] | 4.94
TSVRRALFTAGSD [G10A] | 6.36
TSVRRALFHGGSD [T9H] | 6.06
TSVRRALFTGGGD [S12G] | 6.14
TSVRRAVFTGGSD [L7V] | 0.29
TSVSRALFTGGSD [R4S] | 4.14
TSVRRALFPGGSD [T9P] | 6.52
TSVRRAHFTGGSD [L7H] | 0.109
TSVRRALFTGQSD [G11Q] | 6.54
TSARRALFTGGSD [V3A] | 6.14
TRVRRALFTGGSD [S2R] | 6.52
TSTRRALFTGGSD [V3T] | 4.89
TSVRRALFAGGSD [T9A] | 5.88

Sample 2
Target: UDP-N-acetylglucosamine--peptide N-acetylglucosaminyltransferase 110 kDa subunit (OGT, Homo sapiens, UniProt O15294)
Sequence of UniProt O15294 (whole entry, looked up): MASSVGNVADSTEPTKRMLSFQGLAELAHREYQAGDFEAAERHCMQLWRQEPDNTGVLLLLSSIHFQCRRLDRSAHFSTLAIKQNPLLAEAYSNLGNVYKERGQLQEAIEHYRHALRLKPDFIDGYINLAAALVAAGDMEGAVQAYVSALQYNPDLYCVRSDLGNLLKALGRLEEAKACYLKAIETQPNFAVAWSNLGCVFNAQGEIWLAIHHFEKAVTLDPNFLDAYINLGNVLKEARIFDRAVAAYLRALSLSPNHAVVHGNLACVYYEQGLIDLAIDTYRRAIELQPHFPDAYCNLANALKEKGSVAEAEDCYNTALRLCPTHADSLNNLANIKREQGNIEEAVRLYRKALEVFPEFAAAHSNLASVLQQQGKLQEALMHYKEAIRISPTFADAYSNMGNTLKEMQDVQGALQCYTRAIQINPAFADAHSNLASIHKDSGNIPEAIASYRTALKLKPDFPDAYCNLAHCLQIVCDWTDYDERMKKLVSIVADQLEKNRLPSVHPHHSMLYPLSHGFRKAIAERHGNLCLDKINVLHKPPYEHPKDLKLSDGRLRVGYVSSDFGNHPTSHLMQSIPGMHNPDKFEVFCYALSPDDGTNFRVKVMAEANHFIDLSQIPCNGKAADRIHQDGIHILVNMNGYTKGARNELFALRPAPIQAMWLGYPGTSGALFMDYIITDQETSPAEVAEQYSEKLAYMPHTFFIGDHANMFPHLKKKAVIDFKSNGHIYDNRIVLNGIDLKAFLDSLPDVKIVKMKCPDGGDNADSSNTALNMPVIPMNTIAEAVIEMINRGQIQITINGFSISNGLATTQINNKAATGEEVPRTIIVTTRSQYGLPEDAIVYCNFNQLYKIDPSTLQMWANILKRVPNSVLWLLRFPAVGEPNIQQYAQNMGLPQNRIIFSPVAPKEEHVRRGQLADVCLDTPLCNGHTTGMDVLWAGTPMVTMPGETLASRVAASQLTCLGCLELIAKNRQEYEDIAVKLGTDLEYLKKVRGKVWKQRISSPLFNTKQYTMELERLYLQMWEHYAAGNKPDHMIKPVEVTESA
Read-out: binding
Technique: phage display NGS
Form: peptide
Setting: panning round 2
Reference: input library
Molecule | minimum log2 enrichment ratio
GRFNPVYQMVWEKTV | 3.6
KGVRETWLPAYTIVY | 1.91
DSYHHPVKKTTHTH | 1.58
HLRTHRVDHHYYVYD | 2.18

Sample 3
Target: CEP164, C-terminal peptide (human)
Technique: DHFR complementation, deep sequencing
Medium: yeast
Setting: single substitutions, model-inferred values
Reference: wild type
Reading: higher = weaker binding
Parent: PDZK1, PDZ domain 2 (human); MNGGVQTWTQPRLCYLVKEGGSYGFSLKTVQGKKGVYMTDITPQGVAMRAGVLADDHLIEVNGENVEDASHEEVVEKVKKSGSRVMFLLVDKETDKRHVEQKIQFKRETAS; partner HNRVKVYRF
Substitution | binding free energy change [kcal/mol]
Q104A | -0.151
L88R | -0.153
S70D | -0.142
F87T | 1.52
V99D | -0.0471
V46I | 0.116
Q31N | 0.0885
V74T | 0.0477

Sample 4
Target: Ras GTPase-activating protein-binding protein 1, full length (G3BP1, Homo sapiens, UniProt Q13283)
Sequence of UniProt Q13283 (whole entry, looked up): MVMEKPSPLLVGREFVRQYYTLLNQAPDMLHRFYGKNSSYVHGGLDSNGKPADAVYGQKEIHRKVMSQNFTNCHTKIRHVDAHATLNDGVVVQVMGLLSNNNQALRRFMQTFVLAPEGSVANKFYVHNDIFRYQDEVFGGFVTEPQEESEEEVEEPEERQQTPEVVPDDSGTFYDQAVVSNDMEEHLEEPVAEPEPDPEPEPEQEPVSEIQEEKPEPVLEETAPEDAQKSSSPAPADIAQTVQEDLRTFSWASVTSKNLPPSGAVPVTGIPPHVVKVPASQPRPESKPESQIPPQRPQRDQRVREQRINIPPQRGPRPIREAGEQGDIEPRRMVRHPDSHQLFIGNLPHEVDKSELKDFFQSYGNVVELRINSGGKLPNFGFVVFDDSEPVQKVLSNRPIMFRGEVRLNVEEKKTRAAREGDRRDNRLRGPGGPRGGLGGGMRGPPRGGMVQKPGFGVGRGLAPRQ
Technique: RNA Bind-n-Seq
Form: RNA
Medium: in vitro
Tested at: 200 nM
Setting: whole 134-nt RNA, ends assumed
Added: 150 mM LiCl
Reference: input library
Reading: higher = stronger binding
Library: 7-deaza-guanosine replaces G
All sequences stand within: GGGAGUUCUACAGUCCGACGAUC … UGGAAUUCUCGGGUGUCAAGG
Strand | log2 enrichment
GCAGGAAGUAAAAACAAAUGGAAAUGCUUCGGAUAGUGGCAGGGGUGGGGGUUGCUAAGGAAAGGGUGGGAUGAAAGUGGGUAAAGAGUU | 0.00694
CUGUGCUACACAUCGUAUGUACCGAAUCGGAAAAAAAGGGAAAAAAAGGGGAAAAAAAGGGGAAAGUAUUAUGUUACGCCGUUCGGAUCU | 0.116
GCAGGAAGUAAAAACAAAUGGAAAUGCUUCGGAUAGUGGCAGGGGUGGGGGUUGCUAAGGAAAGUGUGGGAUGGGAGUGGGUAAAGAGUU | 0.0759
UAACUUUAGAGGAGGAUCUGAUGGAUAUGGCAGUGGACGUGGAUUUGUGGAUGGCUAUAAUGGGUAUGGAGGAGGACCUGGAGGUGGCAA | 0.228
UUCCCGGAGAACUCGAGUAAAUCUAGAAGUUGCCAGGUUUCAGAACUAUUUAUUCCUUUAAUGUGCAGACGAAGGGAACGUCAUCGUUUG | -0.00293
UAACUUAAGAGGAGGAUCUGAUGGAUAUGGCAGUGGACGUGGAUUUGGGGAUGGCUAUAAUGGGUAUGGAGGAGGACCUGGAGGUGGCAA | 0.0962
UCAAGUCCUGUGCUACACAUCGUAUGUACCGAAUCGGGAAGGGAAGGGGAAGGGAAAGUAUUAUGUUACGCCGUUCGGAUCUGCACUUCC | -0.604
AGUCCUGUGCUACACAUCGUAUGUACCGAAUCGGGGAAAAGGGAAAAGGAAAAGGGGAAAGUAUUAUGUUACGCCGUUCGGAUCUGCACU | -0.398

Sample 5
Target: PABPC1L2, full length, GST fusion (mouse, UniProt A0ABA7IW68)
Technique: RNAcompete
Form: RNA
Medium: in vitro
Tested at: 20 nM
Setting: 7-mer, probes averaged, single round
Reference: mean of 7-mers
Reading: higher = stronger binding
Residues (chain): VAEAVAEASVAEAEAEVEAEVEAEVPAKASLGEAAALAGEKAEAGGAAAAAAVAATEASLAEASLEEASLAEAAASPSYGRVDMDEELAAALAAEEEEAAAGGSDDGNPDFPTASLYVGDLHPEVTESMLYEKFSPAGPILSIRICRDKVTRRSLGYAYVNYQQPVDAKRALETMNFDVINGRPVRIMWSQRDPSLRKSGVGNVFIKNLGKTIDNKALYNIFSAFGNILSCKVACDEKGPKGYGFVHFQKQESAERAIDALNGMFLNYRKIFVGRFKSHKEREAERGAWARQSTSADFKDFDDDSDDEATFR
Strand | 7-mer Z-score
CAUCUCC | -0.407
GAUUGGA | -0.0736
GUUCCUU | -0.115
CACACUC | -0.204
UAGGUUC | -0.244
GAUAGCC | -0.18
CACGAGC | -0.122
AUAUGUA | 0.0805

Single results of other studies
SMILES | organism | test system | setting | how to read | quantity | result
CC(=O)[C@@]12O[C@](C)(c3ccccc3)O[C@@H]1C[C@H]1[C@@H]3CCC4=CC(=O)CC[C@]4(C)[C@H]3CC[C@@]12C | Plasmodium berghei | Huh-7, liver stage | 10 µM, 24 h | reference: control | parasite load | 17.3%

A few entries again (sample 3):
Substitution | binding free energy change [kcal/mol]
Q31N | 0.0885
L88R | -0.153
S70D | -0.142
Q104A | -0.151
